Experimental data collected from several papers.
Each numbered part is a random draw from the data of one study; scales do not carry over between parts. Substitutions count along the parent as printed.

Block 1
Target: Max dimerization protein 1, bHLH-zipper, MAX partner unstated (MXD1, Homo sapiens, UniProt Q05195, residues 56-136)
Technique: protein-binding microarray
Form: double-stranded DNA, one strand shown
Sample: in vitro
Tested at: not given
Notes: k-mer, scored over probes, only values ≥0.25
Reading: higher = stronger binding
Residues (chain): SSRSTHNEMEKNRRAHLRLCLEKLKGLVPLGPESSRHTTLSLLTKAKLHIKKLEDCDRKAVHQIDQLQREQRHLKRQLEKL
`CGGGGGCA` has an E-score of 0.266.
For `CGTGCCAC`, the E-score was 0.286.
The E-score of `CCCACGCC` is reported as 0.381.
For `CCACCCCA`, the E-score was 0.386.
With `CACGCCTG` the E-score was 0.369.
The E-score of `GGCATGGA` is reported as 0.372.
With `CACGTTCC` the E-score was 0.38.
`CCCCCTGC` has an E-score of 0.33.
The E-score of `CATGAGTC` is reported as 0.271.
For `CAAGCATG`, the E-score was 0.386.
`AGGGGCGG` has an E-score of 0.327.
`CATGCGGG` gave an E-score of 0.384.

Block 2
Target: MAFK, bZIP domain (human)
Technique: DHFR protein complementation
Sample: yeast
Notes: single substitutions, most at no-binding floor
Reference: wild-type JUN-FOS pair
Reading: higher = stronger binding
Parent: JUN, bZIP domain (human); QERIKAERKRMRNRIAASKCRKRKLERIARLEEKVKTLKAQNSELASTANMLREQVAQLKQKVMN; partner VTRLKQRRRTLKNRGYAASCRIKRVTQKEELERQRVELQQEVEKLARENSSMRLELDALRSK
With `A49W` the binding fitness was -1.44 natural log.
`L31I` has a binding fitness of -1.42 natural log.
With `R53W` the binding fitness was -1.49 natural log.
The binding fitness of `S43K` is reported as -1.48 natural log.
With `E33T` the binding fitness was -1.52 natural log.
With `L45F` the binding fitness was -1.55 natural log.
`A46C` has a binding fitness of -1.43 natural log.
The binding fitness of `T37S` is reported as -1.5 natural log.
`L59A` has a binding fitness of -1.42 natural log.
For `V35M`, the binding fitness was -1.46 natural log.
`V35S` has a binding fitness of -1.47 natural log.
For `E32N`, the binding fitness was -1.5 natural log.
For `E54H`, the binding fitness was -1.62 natural log.
For `T48L`, the binding fitness was -1.49 natural log.
With `S47C` the binding fitness was -1.51 natural log.
`A49R` gave a binding fitness of -1.4 natural log.
For `A49H`, the binding fitness was -1.37 natural log.
The binding fitness of `A49L` is reported as -1.4 natural log.
`N42K` gave a binding fitness of -1.15 natural log.
For `A29N`, the binding fitness was -1.37 natural log.
`L52D` gave a binding fitness of -1.5 natural log.

Block 3
Target: Interferon regulatory factor 5, full length, phosphomimetic (IRF5, Homo sapiens, UniProt Q13568-2, residues 1-514, S451D/S453D/S456D/S462D)
Technique: protein-binding microarray
Form: double-stranded DNA, one strand shown
Sample: in vitro
Tested at: 940 nM top
Notes: 60-bp whole probe
Added: salmon DNA 0.4 mg/ml
Reference: random background probes
Reading: higher = stronger binding
Shared flanks, not repeated: GCCTAGCAC … GTCTTGATTCGCTTGACGCTGCTG
Under “fitted relative affinity”, `AAATTTTGATGAACTTAAGCGTGCTAG` is recorded as -0.448 z-score.
For `AGAGCTCTGGCACCTCTAGACGTGCTA`, “fitted relative affinity” read -0.812 z-score.
`TCAATTATATATATCATACTGTGCTAG`: “fitted relative affinity” 0.334 z-score.
`GACGGTCTCCTGTTCCTGACGTGCTAG` — result for “fitted relative affinity”: 0.156 z-score.
Under “fitted relative affinity”, `TTAGATTCAAGTTTCGATTAGTGCTAG` is recorded as 7.06 z-score.
For `CTAGGACTGCTACTGCTTTAGTGCTAG`, “fitted relative affinity” read -0.485 z-score.
Under “fitted relative affinity”, `GTGCCTTTTTTTTTTTTTCTGTGCTAG` is recorded as 1.08 z-score.
`GACGGTCTCGGCATCGGGACGTGCTAG`: “fitted relative affinity” 0.971 z-score.
`GACGGTTTCCTTTTACTGACGTGCTAG`: “fitted relative affinity” 2.31 z-score.
Under “fitted relative affinity”, `GCCGGTCTCCTTCTCCTGACGTGCTAG` is recorded as 0.504 z-score.
`TTAGAACTGAGACTGAATTAGTGCTAG` — result for “fitted relative affinity”: 0.0148 z-score.
`TTAGGACTCCTTATCCTTTAGTGCTAG`: “fitted relative affinity” -0.00664 z-score.
For `GTCGGTATCGGGACTGGGGACGTGCTA`, “fitted relative affinity” read 3.7 z-score.
Under “fitted relative affinity”, `TCAGCTTCCTCTCTGCCACTGTGCTAG` is recorded as 0.758 z-score.
`GACGGTCTCCTTATGCTGACGTGCTAG` — result for “fitted relative affinity”: 0.196 z-score.
`GACGATTTCAGTCTCGAAACGTGCTAG`: “fitted relative affinity” 2.19 z-score.
`TTAGAACTGAGTTTCGGTTAGTGCTAG`: “fitted relative affinity” 8.86 z-score.

Block 4
Target: RING finger protein unkempt homolog, zinc fingers 1-6, SBP tag (UNK, Homo sapiens, UniProt Q9C0B0, residues 30-357)
Sequence of UniProt Q9C0B0 (30-357, looked up): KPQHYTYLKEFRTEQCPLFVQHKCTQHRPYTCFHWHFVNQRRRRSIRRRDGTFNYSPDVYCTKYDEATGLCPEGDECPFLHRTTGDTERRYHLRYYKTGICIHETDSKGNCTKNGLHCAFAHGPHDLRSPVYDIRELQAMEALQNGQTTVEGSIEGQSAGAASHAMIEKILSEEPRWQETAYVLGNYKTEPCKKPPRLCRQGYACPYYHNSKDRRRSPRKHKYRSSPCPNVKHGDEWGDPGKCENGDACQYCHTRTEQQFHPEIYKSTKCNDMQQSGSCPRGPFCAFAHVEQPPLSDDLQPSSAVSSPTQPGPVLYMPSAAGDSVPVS
Technique: RNA Bind-n-Seq
Form: RNA
Sample: in vitro
Tested at: 100 nM
Notes: RNA with constant flanks, vertebrate orthologous sites, ends assumed
Reference: input RNA pool
Reading: higher = stronger binding
Shared flanks, not repeated: GGGAGUUCUACAGUCCGACGAUC … CAACAGAGGAUUGAGCAUCA
The bound/input enrichment of `GCACAUGCCGCUAUUACCAAAACCAGACUGCCACGGUUCACAUUUCGUCCAGUCCUUUCAGUGUUUCCGGCCCCGAUCCUGUCUAGUCCUUUCAGUGAUGAGGUACCCUGAGUUCUCCUU` is reported as 0.471 ratio.
`CAGUAGAAUUACACUAAUGCUGAAGUUAAAAGGAUAUCCAAGGUGAUGAUAAAGUGUGUGUUGGUAGUUACUAAAAGAACCUUAGCUGUUAUUGCCUUGUAUUUCUAUCCCUUGUUUCAG` has a bound/input enrichment of 0.393 ratio.
The bound/input enrichment of `AUAGCAGCAGCACAGGCUGUUUGAGCUUUGGGAAAAUGAGCUUUGCUUUUUAUAUUUAAAUAGGAUACUUUUAUAUGAUGGGUGCUUUGAGUGUGAAUGCAGCAGGCUCUCAUUUCAGAG` is reported as 1.23 ratio.
For `UAUCUUUAGGAUGAAGCUCUUACACCAGGUGGCACGAGUCUGGAAGACAGAUGGGUUGACUAGUUGUACUUAUAAGUUACUUUCUGUGAAGCACAAUCCUUUGUAUAUCAAUAUCACAGU`, the bound/input enrichment was 0.597 ratio.
With `CUUAAUUAGAGAGUAGUAUAUGUUUCAUAAAGAAAAGUCUUUCUAAUUUUGUUUGUCAUAUAGUAUUUUGGAAUUUGUAUAAUGAGGAUGUUUAGAAGCCAUAUAAAUGGCUUUUUUUAA` the bound/input enrichment was 0.544 ratio.
The bound/input enrichment of `CUGAAGCUUUGUGUUUGGCUGCACCUGCAUAAGCUGCUACAAAUAGAAUAAAGAAUCUCAUAGCCUGUGUCUAUCAUUUAGAUGCAUGGGAAAAUGGGCUUUGCACACAAUGGGUUUGGA` is reported as 1 ratio.
`UAUUUUUUUAUUUUAGGUAUCAUUGCCCAAUGCCCAAGAUCUUUUAUGUUCAGCUGACUGUAGGAAAUAAUGAAUUUUUUGGGGAAGGAAAAACUCGACAAGCUGCUAGACACAAUGCUG` gave a bound/input enrichment of 2.34 ratio.
The bound/input enrichment of `CAUUGUACCCUGCUGUAUAAUAAAUAAUCUUAGACAUUUAUCAACUGUUGAUACAAAUGUUAGUCCCUAACCACUUUUUAUAUGUUUUAAAUUUUUGAAAUUCAAGUGUACCUGCCAUAA` is reported as 1.57 ratio.
`GUCAUCUGACUGGAUGAAGACUGUUCCAAGUUACAACCAAACAAACAGCUCCAUGGACUUUAGAAAUUACAUGAUGAGAGACGAGACUCUGGAGCCGCUGCCCAAAAACUGGGAAAUGGC` gave a bound/input enrichment of 0.448 ratio.
The bound/input enrichment of `UUGGGACCAGCUCUCCAAAUAGGAAUAGUAGUAAAAGAAAUAAACAAAAUGAUAUUUGUAUAGAAAAAACAGAAGUUAAAUCAUGCAAGGGAAAUGCUGCCAGCGUUGCAGGCCCUAAAG` is reported as 1.15 ratio.
`GGGAGAUAAUGAGUAGUAUAGAAGAGAAACAUUUUUUGUCUUCCUCUUUUAAUCACUACCUAAUCUACUUUUUAAAAUUUGGACUUCACUACUCUGAAUUGAUAAUUCCAAUUUUCACAC` has a bound/input enrichment of 0.173 ratio.

Block 5
Target: CCNB3, cyclin fold, Cln2 fusion (human)
Technique: yeast growth competition, sequencing
Sample: yeast
Notes: weak parent motif
Reference: not given
Reading: higher = stronger binding
Parent: PLK5 docking peptide (human); IFRKVGQRLLTQC; partner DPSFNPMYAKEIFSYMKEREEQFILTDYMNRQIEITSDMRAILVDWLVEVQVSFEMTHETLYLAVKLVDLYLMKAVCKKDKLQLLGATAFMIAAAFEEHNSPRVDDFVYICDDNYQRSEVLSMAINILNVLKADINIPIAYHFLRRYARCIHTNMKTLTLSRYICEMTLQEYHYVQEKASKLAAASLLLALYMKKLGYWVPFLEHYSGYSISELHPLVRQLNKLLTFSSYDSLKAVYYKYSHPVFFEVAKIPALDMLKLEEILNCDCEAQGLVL
Under “normalised enrichment score”, `IFRKVGQRLATQC [L10A]` is recorded as 0.173.
`AFRKVGQRLLTQC [I1A]` — result for “normalised enrichment score”: 0.454.
For `IFAKVGQRLLTQC [R3A]`, “normalised enrichment score” read 0.0273.
`IFRAVGQRLLTQC [K4A]` — result for “normalised enrichment score”: -0.0763.
`IARKVGQRLLTQC [F2A]`: “normalised enrichment score” 0.561.
For `IFRKAGQRLLTQC [V5A]`, “normalised enrichment score” read 0.279.

Block 6
Target: ABI1, truncated, D143A, DHFR fusion (Arabidopsis thaliana)
Technique: DHFR PCA, deep sequencing
Sample: yeast
Notes: methotrexate growth selection, single substitutions
Added: (+)-ABA 17 µM
Reference: wild-type fitted maximum
Reading: higher = stronger binding
Parent: PYL1, truncated, DHFR fusion (Arabidopsis thaliana); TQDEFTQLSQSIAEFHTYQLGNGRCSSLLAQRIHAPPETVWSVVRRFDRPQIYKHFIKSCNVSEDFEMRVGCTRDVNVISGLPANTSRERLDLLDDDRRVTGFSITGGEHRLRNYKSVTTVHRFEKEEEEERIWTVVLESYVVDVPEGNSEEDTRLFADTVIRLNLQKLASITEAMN
`V121Q`: “relative binding score” 3.04%.
`S150K`: “relative binding score” 39%.
Under “relative binding score”, `W41I` is recorded as -23.6%.
For `C25N`, “relative binding score” read 4.87%.
For `W41N`, “relative binding score” read 9.19%.
For `D95C`, “relative binding score” read 53.5%.
`R132D` — result for “relative binding score”: 113%.
For `V62I`, “relative binding score” read 74.5%.
`V43C` — result for “relative binding score”: 47%.
Under “relative binding score”, `E64G` is recorded as 82.3%.
Under “relative binding score”, `Q31G` is recorded as 6.13%.
For `D95Q`, “relative binding score” read 15.9%.
For `G71W`, “relative binding score” read 7.38%.
`A13R`: “relative binding score” 81.5%.
For `E152T`, “relative binding score” read 73.9%.
`V62K`: “relative binding score” 13.1%.
For `I52E`, “relative binding score” read 79.7%.
Under “relative binding score”, `E128W` is recorded as 76.6%.

Block 7
Target: Sal-like protein 4, full length isoform B (SALL4, Homo sapiens, UniProt Q9UJQ4-2, residues 1-616)
Technique: universal PBM
Form: double-stranded DNA, one strand shown
Sample: in vitro
Tested at: not given
Notes: 8-mer, flanks averaged, mean of replicates
Reading: higher = stronger binding
`CTGAAGTA` gave an E-score of 0.0402.
`CTCCGGAC` gave an E-score of -0.284.
`AGGAGTAC` has an E-score of -0.087.
With `AGTCCACA` the E-score was -0.162.
With `GTCGACAA` the E-score was -0.175.
`AGTCTTCA` has an E-score of -0.0186.
For `GAGGACCC`, the E-score was -0.259.
For `ATAGCCTC`, the E-score was -0.0405.
For `AACAGATT`, the E-score was 0.0768.
`CACACGAA` has an E-score of -0.0317.
`ACATGGGA` has an E-score of -0.0686.
The E-score of `TAGCTGCA` is reported as -0.143.
`ATCGTCAT` has an E-score of 0.256.
The E-score of `CTAGCTGA` is reported as -0.0874.
The E-score of `AAACCTAG` is reported as -0.0801.
With `AGCAGTGG` the E-score was -0.29.
For `AACATCAC`, the E-score was 0.14.

For quick reference, copied from above (block 7):
`AGGAGTAC` has an E-score of -0.087.
With `AGTCCACA` the E-score was -0.162.
With `GTCGACAA` the E-score was -0.175.
`AGTCTTCA` has an E-score of -0.0186.
For `GAGGACCC`, the E-score was -0.259.
For `ATAGCCTC`, the E-score was -0.0405.
For `AACAGATT`, the E-score was 0.0768.
`CACACGAA` has an E-score of -0.0317.
`ACATGGGA` has an E-score of -0.0686.
The E-score of `TAGCTGCA` is reported as -0.143.
`ATCGTCAT` has an E-score of 0.256.
The E-score of `CTAGCTGA` is reported as -0.0874.
The E-score of `AAACCTAG` is reported as -0.0801.
With `AGCAGTGG` the E-score was -0.29.
For `AACATCAC`, the E-score was 0.14.
